Published values pooled from the literature.
Lines come from different studies, so protocols differ. Numbers after ± are the reported error.
Cell line: HeLa

Compound	test	setting	IC50 [µM]
CCCCCCCCCCCCCCCC(=O)NCCCC[C@H](NC(=O)[C@H](CSCC(=O)NCc1cn(CCOc2ccc(C3=C4C(C)=C(I)C(C)=[N+]4[B-](F)(F)n4c(C)c(I)c(C)c43)cc2)nn1)NC(=O)c1ccc(-c2nnc(C)nn2)cc1)C(=O)N[C@@H](CCCNC(=N)N)C(=O)N[C@@H](CCCNC(=N)N)C(=O)N[C@@H](CCCNC(=N)N)C(=O)N[C@@H](CCCNC(=N)N)C(N)=O	phototoxicity	2 h plus 18 h, 2.5% FBS, together with: irradiation 525 nm for 160 s	0.369 ± 0.03
CN(C)c1ccc(-c2nc3ccccc3s2)[c]([Pt][O]C(=O)c2ccccc2P(c2ccccc2)c2ccccc2)c1		photoactivated	1.5
C[C@@H](N)[C@H](O)CCCCCCCC(=O)CCCCCCCCCCCCCC[C@@H](O[C@@H]1O[C@H](CO)[C@H](O)[C@H](O)[C@H]1O)[C@H](N)CO	cell growth or viability		22.8
C[C@H]1O[C@@H](O[C@H]2CC[C@@]3(C)[C@H](CC[C@@H]4[C@@H]3CC[C@]3(C)[C@@H](C5=CC(=O)OC5)[C@@H](O)C[C@]43O)C2)C[C@H](O)[C@@H]1O	cell growth or viability, MTT	48 h	0.16
COc1cc(C(c2c(C)nn(-c3ccccc3)c2O)c2c(C)nn(-c3ccccc3)c2O)cc(OC)c1OC	cell growth or viability, MTT	48 h	22.9
CC(C)C[C@H](NC(=O)[C@H](CCCCN)NC(=O)[C@H](CC(C)C)NC(=O)[C@H](CC(C)C)NC(=O)[C@H](CCCCN)NC(=O)[C@H](CCCCN)NC(=O)[C@H](CC(C)C)NC(=O)[C@H](CC(C)C)NC(=O)[C@H](CCCCN)NC(=O)[C@H](CC(C)C)NC(=O)[C@H](CC(C)C)NC(=O)[C@H](CCCCN)NC(=O)[C@H](CCCCN)NC(=O)[C@H](CC(C)C)NC(=O)[C@@H](N)CSSC[C@H](N)C(=O)N[C@@H](CC(C)C)C(=O)N[C@@H](Cc1c[nH]cn1)C(=O)N[C@@H](CCC(=O)O)C(=O)N[C@@H](CC(C)C)C(=O)N[C@@H](CC(C)C)C(=O)N[C@@H](CCC(=O)O)C(=O)N[C@@H](Cc1c[nH]cn1)C(=O)N[C@@H](CC(C)C)C(=O)N[C@@H](Cc1c[nH]cn1)C(=O)N[C@@H](CCC(=O)O)C(=O)N[C@@H](CC(C)C)C(=O)N[C@@H](CC(C)C)C(=O)N[C@@H](CCC(=O)O)C(=O)N[C@@H](Cc1c[nH]cn1)C(N)=O)C(N)=O	cell growth or viability, MTT	pH 6	11.3
CC[C@H](C)[C@H](NC(=O)[C@H](CCCCN)NC(=O)[C@H](CCCCN)NC(=O)[C@H](C)NC(=O)[C@H](CC(C)C)NC(=O)[C@H](C)NC(=O)[C@H](C)NC(=O)[C@H](CC(C)C)NC(=O)[C@H](C)NC(=O)[C@H](CCCCN)NC(=O)[C@H](CC(C)C)NC(=O)[C@H](CC(N)=O)NC(=O)[C@@H](NC(=O)[C@H](CCCCN)NC(=O)CNC(=O)[C@H](CC(C)C)NC(=O)[C@H](CC(C)C)NC(=O)[C@H](Cc1ccc(O)cc1)NC(=O)CNC(=O)[C@H](C)NC(=O)[C@H](CO)NC(=O)[C@H](CC(N)=O)NC(=O)[C@H](CC(C)C)NC(=O)[C@@H](NC(=O)[C@H](Cc1c[nH]c2ccccc12)NC(=O)CN)[C@@H](C)O)[C@@H](C)CC)C(=O)N[C@@H](CC(C)C)C(N)=O	cytotoxicity		1.3
COC(=O)[C@H](C(C)C)N(C)C(=O)[C@H](C(C)C)N(C)C(=O)[C@@H]1CCCN1C(=O)[C@H](C)N(C)C(=O)OC(C)(C)C	cell growth or viability, SRB		23
CC(C)C[C@H](NC(=O)[C@H](CC(C)C)NC(=O)[C@H](CCC(=O)O)NC(=O)[C@H](Cc1c[nH]cn1)NC(=O)[C@H](CC(C)C)NC(=O)[C@H](Cc1c[nH]cn1)NC(=O)[C@H](CCC(=O)O)NC(=O)[C@H](CC(C)C)NC(=O)[C@H](CC(C)C)NC(=O)[C@H](CCC(=O)O)NC(=O)[C@H](Cc1c[nH]cn1)NC(=O)[C@@H](N)CC(C)C)C(=O)N[C@@H](CCC(=O)O)C(=O)N[C@@H](Cc1c[nH]cn1)C(N)=O	cell growth or viability, MTT	pH 7.4	> 100

Excerpt of the above:
Compound	test	setting	IC50 [µM]
COC(=O)[C@H](C(C)C)N(C)C(=O)[C@H](C(C)C)N(C)C(=O)[C@@H]1CCCN1C(=O)[C@H](C)N(C)C(=O)OC(C)(C)C	cell growth or viability, SRB		23
